Published values gathered from unrelated publications.
Each numbered part is a random draw from the data of one study; scales do not carry over between parts.
UniProt Q9ZTX8, sequence (whole entry, looked up): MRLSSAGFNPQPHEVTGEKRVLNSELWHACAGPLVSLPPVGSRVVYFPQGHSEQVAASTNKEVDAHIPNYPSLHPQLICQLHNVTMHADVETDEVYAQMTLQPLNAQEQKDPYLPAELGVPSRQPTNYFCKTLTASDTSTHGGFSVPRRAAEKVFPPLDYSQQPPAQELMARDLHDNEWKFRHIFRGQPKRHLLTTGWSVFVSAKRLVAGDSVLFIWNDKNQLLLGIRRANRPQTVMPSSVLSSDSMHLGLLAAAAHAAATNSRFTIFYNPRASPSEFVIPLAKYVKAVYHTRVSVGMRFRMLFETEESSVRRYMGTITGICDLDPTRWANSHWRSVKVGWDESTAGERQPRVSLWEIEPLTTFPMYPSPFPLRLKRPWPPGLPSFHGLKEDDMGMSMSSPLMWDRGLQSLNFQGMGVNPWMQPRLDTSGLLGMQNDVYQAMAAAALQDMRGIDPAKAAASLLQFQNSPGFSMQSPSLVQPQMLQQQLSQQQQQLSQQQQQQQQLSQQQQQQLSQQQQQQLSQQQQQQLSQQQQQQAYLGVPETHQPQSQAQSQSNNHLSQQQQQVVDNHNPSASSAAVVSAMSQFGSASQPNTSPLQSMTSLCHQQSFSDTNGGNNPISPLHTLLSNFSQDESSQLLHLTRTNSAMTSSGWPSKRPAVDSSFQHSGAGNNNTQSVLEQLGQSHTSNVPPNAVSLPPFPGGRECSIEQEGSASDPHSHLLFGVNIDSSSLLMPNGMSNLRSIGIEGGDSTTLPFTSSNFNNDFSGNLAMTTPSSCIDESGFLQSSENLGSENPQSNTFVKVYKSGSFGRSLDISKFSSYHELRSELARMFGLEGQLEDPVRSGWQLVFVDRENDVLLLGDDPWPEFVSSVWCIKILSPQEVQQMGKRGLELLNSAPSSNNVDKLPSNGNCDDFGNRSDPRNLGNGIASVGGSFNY
UniProt Q9C8N7, sequence (whole entry, looked up): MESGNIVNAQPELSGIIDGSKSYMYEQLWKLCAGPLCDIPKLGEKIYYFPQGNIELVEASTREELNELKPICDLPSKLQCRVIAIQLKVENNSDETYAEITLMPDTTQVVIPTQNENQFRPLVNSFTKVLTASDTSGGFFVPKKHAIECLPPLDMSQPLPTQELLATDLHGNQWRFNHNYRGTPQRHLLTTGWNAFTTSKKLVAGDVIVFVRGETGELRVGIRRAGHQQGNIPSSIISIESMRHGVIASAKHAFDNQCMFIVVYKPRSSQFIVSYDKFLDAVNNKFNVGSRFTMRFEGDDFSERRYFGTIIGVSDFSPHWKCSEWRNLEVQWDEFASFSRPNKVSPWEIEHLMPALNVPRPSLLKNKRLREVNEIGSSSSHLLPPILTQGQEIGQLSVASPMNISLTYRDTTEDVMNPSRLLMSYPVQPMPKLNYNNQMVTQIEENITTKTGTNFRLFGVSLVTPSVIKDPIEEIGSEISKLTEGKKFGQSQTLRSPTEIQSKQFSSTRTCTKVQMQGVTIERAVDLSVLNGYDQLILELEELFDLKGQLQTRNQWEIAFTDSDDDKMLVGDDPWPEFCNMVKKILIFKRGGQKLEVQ
UniProt Q9C7I9, sequence (whole entry, looked up): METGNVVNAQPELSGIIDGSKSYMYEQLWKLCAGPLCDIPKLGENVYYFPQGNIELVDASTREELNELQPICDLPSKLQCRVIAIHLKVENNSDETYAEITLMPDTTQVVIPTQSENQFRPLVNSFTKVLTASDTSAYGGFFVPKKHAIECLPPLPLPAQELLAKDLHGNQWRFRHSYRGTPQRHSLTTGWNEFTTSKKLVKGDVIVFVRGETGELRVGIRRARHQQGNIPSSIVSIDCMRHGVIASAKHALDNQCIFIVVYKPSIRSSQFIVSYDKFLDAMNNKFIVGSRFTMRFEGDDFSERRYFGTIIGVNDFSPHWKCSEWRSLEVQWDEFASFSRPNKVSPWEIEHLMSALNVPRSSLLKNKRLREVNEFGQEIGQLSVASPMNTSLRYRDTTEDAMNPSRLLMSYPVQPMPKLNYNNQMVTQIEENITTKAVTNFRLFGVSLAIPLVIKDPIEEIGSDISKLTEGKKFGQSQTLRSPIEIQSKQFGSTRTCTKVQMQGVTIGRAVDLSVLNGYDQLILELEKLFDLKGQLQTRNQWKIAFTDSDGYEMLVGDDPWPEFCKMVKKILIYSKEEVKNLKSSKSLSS
UniProt Q9C5X0, sequence (whole entry, looked up): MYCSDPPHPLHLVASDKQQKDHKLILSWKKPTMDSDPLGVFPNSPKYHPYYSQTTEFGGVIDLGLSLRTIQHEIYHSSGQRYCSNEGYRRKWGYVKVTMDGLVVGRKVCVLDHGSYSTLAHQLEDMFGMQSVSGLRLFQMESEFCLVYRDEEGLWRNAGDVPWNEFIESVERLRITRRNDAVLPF
UniProt Q8L7G0, sequence (whole entry, looked up): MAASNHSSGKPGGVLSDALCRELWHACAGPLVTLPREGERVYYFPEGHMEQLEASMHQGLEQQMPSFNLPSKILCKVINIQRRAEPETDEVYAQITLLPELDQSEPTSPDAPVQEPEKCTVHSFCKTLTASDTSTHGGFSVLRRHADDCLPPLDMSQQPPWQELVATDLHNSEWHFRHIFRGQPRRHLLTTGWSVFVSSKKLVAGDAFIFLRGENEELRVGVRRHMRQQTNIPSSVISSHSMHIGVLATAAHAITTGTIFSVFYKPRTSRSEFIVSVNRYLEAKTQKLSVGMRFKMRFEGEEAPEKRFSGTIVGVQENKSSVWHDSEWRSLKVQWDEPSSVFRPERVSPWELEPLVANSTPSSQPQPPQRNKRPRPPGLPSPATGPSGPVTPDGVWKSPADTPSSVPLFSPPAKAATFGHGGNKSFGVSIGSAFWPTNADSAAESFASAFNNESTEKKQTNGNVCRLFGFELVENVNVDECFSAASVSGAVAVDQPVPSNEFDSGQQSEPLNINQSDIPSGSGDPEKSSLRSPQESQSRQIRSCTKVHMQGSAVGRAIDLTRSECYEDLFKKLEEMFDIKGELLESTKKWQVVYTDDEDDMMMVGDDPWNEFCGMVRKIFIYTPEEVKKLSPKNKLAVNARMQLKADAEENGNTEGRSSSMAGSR
UniProt Q9M1R4, sequence (whole entry, looked up): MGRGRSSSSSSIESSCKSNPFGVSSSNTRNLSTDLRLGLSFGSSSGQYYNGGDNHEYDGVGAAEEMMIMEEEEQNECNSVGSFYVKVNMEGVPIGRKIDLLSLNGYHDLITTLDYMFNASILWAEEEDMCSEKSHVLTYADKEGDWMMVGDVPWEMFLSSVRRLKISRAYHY
UniProt Q9ZTX9, sequence (whole entry, looked up): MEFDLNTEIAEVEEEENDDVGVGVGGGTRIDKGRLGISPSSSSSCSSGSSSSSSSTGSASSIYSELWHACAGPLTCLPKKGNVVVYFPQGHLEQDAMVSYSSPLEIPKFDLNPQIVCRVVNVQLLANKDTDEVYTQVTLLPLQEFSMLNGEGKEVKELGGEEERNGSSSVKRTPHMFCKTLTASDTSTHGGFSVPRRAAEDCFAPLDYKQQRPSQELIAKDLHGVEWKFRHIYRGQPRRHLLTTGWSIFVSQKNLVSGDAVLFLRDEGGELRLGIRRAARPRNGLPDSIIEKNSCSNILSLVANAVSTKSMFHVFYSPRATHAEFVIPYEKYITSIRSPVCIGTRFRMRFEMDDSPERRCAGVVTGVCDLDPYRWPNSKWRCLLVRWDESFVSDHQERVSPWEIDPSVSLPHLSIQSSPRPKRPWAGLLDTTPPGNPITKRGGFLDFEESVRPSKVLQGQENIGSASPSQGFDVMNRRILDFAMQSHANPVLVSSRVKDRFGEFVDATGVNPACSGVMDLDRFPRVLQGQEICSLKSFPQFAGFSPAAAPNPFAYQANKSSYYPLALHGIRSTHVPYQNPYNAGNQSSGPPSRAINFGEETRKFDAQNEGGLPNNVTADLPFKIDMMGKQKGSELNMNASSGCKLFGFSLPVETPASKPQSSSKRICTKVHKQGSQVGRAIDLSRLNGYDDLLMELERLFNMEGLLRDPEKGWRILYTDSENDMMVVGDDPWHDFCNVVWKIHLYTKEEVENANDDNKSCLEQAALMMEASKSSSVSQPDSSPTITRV
UniProt Q8RYC6, sequence (whole entry, looked up): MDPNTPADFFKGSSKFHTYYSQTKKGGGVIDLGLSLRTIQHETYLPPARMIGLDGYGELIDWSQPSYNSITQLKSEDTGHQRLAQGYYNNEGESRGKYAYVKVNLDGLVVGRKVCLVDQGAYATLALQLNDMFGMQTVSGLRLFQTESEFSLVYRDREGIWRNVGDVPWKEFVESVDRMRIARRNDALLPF

Series 1
Molecule: IAA8 (Arabidopsis thaliana, UniProt Q38826)
UniProt Q38826, sequence (whole entry, looked up): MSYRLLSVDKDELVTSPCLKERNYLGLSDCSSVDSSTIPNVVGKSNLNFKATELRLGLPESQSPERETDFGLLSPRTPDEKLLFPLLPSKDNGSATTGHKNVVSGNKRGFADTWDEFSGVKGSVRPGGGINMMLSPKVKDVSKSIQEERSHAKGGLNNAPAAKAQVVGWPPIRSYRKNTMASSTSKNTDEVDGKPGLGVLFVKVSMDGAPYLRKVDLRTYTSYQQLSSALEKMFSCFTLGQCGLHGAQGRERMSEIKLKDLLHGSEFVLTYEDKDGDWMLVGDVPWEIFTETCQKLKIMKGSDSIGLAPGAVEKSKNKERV
Method: two-hybrid
Reading: higher = firmer interaction
partner	conditions	scale	positive tests
IAA32 (Arabidopsis thaliana, UniProt Q8RYC6)	–	reference: out of 4 tests	0
IAA34 (Arabidopsis thaliana, UniProt Q9C5X0)	–	reference: out of 4 tests	4
ARF1 538-665 (Arabidopsis thaliana, UniProt Q8L7G0)	–	reference: out of 4 tests	0
IAA30 (Arabidopsis thaliana, UniProt Q9M1R4)	weak activation fusion	reference: out of 2 tests	1
ARF22 498-598 (Arabidopsis thaliana, UniProt Q9C8N7)	–	reference: out of 4 tests	1
ARF4 660-788 (Arabidopsis thaliana, UniProt Q9ZTX9)	–	reference: out of 4 tests	0
ARF20 484-590 (Arabidopsis thaliana, UniProt Q9C7I9)	–	reference: out of 4 tests	0
ARF6 790-935 (Arabidopsis thaliana, UniProt Q9ZTX8)	–	reference: out of 4 tests	3

Series 2
Target: TAR DNA-binding protein 43, full length, His tag (TARDBP, Homo sapiens, UniProt Q13148, residues 1-414)
Method: RNA Bind-n-Seq
Molecule type: RNA
Sample: in vitro
Tested at: 20 nM
Notes: 6-mer, flanks averaged, single round
Together with: 150 mM LiCl
Reference: input library
Reading: higher = stronger binding
Oligonucleotide	6-mer enrichment (R)
UAGGGG	1.24
ACGAAA	0.819
CUAGAA	0.858
GUCCAC	0.9
GCCGUU	0.948
AUGGGC	1.05
UCAACG	0.785
AGCGAU	0.87

Series 3
Target: RING finger protein unkempt homolog, zinc fingers 1-6, SBP tag (UNK, Homo sapiens, UniProt Q9C0B0, residues 30-357)
UniProt Q9C0B0, sequence (30-357, looked up): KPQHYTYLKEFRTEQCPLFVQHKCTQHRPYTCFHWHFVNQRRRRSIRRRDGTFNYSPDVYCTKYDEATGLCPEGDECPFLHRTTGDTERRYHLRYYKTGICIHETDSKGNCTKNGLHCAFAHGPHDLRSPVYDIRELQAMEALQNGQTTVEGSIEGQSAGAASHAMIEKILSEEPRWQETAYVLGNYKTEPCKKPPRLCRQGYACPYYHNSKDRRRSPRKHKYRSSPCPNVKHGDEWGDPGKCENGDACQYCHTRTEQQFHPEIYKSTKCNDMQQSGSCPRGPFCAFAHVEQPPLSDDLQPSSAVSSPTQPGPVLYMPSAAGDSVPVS
Method: RNA Bind-n-Seq
Molecule type: RNA
Sample: in vitro
Tested at: 100 nM
Notes: RNA with constant flanks, vertebrate orthologous sites, ends assumed
Reference: input RNA pool
Reading: higher = stronger binding
All sequences stand within: GGGAGUUCUACAGUCCGACGAUC … CAACAGAGGAUUGAGCAUCA
Oligonucleotide	bound/input enrichment [ratio]
CAUUAACACACACAAUGUCUCCAGGGGGGUAUUAAAUUUGAUUUCUUACAUAUAAAACAAACAAAACCAACCAACGAACCAUUUUUAAAGUAGAAGAGGGUUUUUAAUAGAAAAUGACAU	1.27
CUAUUAAUGCACUGUAUUCCAGGCAUCGUCUGAAUUUUAGUGUAAUCUAGGAGAUUUUUAUAAUUUUAUUUUAAUGAAGUAUGGAUUGAUGCAGAGUUGUUAGCAGUCUGUAGUCUUUUA	0.646
AACUAAAGGAGUUAGCAUCUUUAUUUUUGUAUCAAAGAUAAAGGUUAUUUUGGAAAUUAUUAGGAUUUUUACAUAACUCUGAAAUCUGUUGCUUUUGUAAACCAAUUGUUGGAUCUUAGG	0.327
UUACAGUCAUUGAUGGACUCUAUUUUUUUAUUAUUACUUGGACCUUGGUCGUUUUUAUACUAGCAAAAAUGUCUUGUUUUAAUUUGUGUUUUUUUGGGGGGUGGGGGUGGGAGGGAUUGA	2.37
GCAAAUCCAAUCACUGUGAUAUUUAAAAUAUGCACAGUCCUCAUUCUUUCUCCAUGAUCCUAGUAUUUUUCUAGCUGUAUCUUUGUAUCUCAUACUGUUAUUUAUCAGUUUUGUUCCCCU	0.957
UCCUGUGUUGGUGCAGAGUGCUCUGUACCAGUGCUCAUCAUCCUUCAUACCGACUGUACCUAGUUAUAGGAAUUUAAUAUUUUUUAAAGUUUUACAUUGCUGUAUAUUCAAAGAUUUGUU	0.969
UGCGAACUCUUGCAGUCUUAGAUGUUAUACAAAAAUAUGUAUCUGAAUUGUAAGAGUUGUUAGCACAGGUUUUUUUUUUUUUUUUAAGCACUUGUUUUGGGUACAAGGCAUUUCUGAAAU	0.502
UUGUCUCGGGAGAGCCGGCCGGGGUUGGCAUUCAUCCUGCUCGCCCUUUGCUUUAUUUUCCUCGGGGCUGGGGUGAGGGUCGCGGCGCCCACUGAGCCUGAGGCGCGAGCUUGUGUGAUU	0.437

Mixed results
Sequence	target	assay	test system	conditions	quantity	result
YMMDGNECP	HLA class I histocompatibility antigen, A alpha chain, allele A*80:01 (Homo sapiens, UniProt P04439)	peptide-MHC binding	peptide	concentration not given	binding	inactive

For quick reference, copied from above (series 2):
Oligonucleotide	6-mer enrichment (R)
ACGAAA	0.819
